# Measurements gathered from unrelated publications.
# Parts stem from different laboratories: compare values within a part only.

# Sample 1
# Target: Ras GTPase-activating protein-binding protein 1, full length (G3BP1, Homo sapiens, UniProt Q13283)
# Chain of UniProt Q13283 (whole entry, looked up): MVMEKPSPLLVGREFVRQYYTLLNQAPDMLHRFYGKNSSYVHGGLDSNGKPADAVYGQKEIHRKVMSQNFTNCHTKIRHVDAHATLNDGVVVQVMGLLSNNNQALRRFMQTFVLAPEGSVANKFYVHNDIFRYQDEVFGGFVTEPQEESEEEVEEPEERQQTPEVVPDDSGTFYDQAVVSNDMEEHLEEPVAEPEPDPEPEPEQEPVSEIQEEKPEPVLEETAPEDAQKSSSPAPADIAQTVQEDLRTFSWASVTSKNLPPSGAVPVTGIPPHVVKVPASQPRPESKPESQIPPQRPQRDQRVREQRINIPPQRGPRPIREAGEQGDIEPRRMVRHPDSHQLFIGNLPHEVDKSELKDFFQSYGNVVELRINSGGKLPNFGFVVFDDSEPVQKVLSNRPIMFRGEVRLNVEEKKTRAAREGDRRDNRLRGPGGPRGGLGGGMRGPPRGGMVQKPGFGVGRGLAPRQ
# Method: RNA Bind-n-Seq
# Molecule type: RNA
# Matrix: in vitro
# Tested at: 200 nM
# Setting: whole 134-nt RNA, ends assumed
# With: 150 mM LiCl
# Reference: input library
# Reading: higher = stronger binding
# All molecules: 7-deaza-guanosine replaces G
Oligonucleotide,log2 enrichment
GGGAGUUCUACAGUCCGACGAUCACCAUGCAGGUGGGCAUCUUUUGGAAGUGGGGCAAGGGGGGGAUAGGGAGGGGGGUAACACUUUGGGAACAGGUGGUCCCAGGUCGUUUCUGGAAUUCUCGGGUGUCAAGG,0.256
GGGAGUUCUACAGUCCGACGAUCAAGUCCUGUGCUACACAUCGUAUGUACCGAAUCGGAAAAGGAAAAGGGAAAAGGGGAAAGUAUUAUGUUACGCCGUUCGGAUCUGCACUUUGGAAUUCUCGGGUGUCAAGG,-0.247
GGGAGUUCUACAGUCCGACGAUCGUGGACAACGCGUACUGGCUGUGGACUUUCCAGGGACGCCUCCUGCAGAAGAACAACAAGGACCGCUUCUGCCAGCUGCUGUGGCGGCCCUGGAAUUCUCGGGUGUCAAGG,-0.864
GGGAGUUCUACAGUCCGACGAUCAAGUCCUGUGCUACACAUCGUAUGUACCGAAUCGGAAAGGAAAAAGGAAAAAAAGGAAAGUAUUAUGUUACGCCGUUCGGAUCUGCACUUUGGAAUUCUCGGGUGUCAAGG,-0.401
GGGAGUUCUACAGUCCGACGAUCUGGCCCUGGUGGCUUGCGGGGAGGAAGAGGUGGCCUCAUGGAUCGUGGUGGUCCCGGUGGAAUGUUCAGAGGUGGCCGUGGUGGAGACAGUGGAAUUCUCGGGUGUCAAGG,0.545
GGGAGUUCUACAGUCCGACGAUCAGUCCUGUGCUACACAUCGUAUGUACCGAAUCGGGAAAAAAAGGGAGGGUUUUUGGGAAAGUAUUAUGUUACGCCGUUCGGAUCUGCACUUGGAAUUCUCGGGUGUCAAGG,-1.6
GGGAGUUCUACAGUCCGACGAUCGGUGUUGCUGGAAGAAGCCAAGGAUUUGCUCUCUGACUGGCUGGAUUCUACACUUGGCUGUGAUGUCACUGACAAUUCCAUCUUCUCCAAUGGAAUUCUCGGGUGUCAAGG,-0.302
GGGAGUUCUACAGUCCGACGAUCCACAGACAACACGCACCCACACAGACACAGAGGGAAGGGGUUGGGAUGGGGACAGGGUGCACAGCAGGGCGGGGUAGGACCCCAGCCCAUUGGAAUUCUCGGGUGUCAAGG,-0.477
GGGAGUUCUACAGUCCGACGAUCUAACUUUAGAGGAGGAUCUGAUGGAUAUGGCAGUGAACGUGGAUUUGGGGAUGGCUAUAAUGGGUAUGGAGGAGGACCUGGAGGUGGCAAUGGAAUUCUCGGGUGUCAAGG,-0.0346
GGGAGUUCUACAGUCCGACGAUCAGUCCUGUGCUACACAUCGUAUGUACCGAAUCGGGGCCCCCGGCCCCCGGCCCCCGGGAAAGUAUUAUGUUACGCCGUUCGGAUCUGCACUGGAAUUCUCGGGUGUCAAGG,-1.57
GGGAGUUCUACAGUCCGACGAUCCUCAAGUCCUGUGCUACACAUCGUAUGUACCGAAUCGGUUUGGUGGAAAAAGGAAAGUAUUAUGUUACGCCGUUCGGAUCUGCACUUCCAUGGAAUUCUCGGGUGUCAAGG,0.0216

# Sample 2
# Target: RNA binding protein fox-1 homolog 2, RRM domain, GST-SBP tag (RBFOX2, Homo sapiens, UniProt O43251-10, residues 100-194)
# Method: RNA Bind-n-Seq
# Molecule type: RNA
# Matrix: in vitro
# Tested at: 365 nM
# Setting: natural RNA segment, single round, ends assumed
# Reference: no-protein control
# Reading: higher = stronger binding
# Residues (chain): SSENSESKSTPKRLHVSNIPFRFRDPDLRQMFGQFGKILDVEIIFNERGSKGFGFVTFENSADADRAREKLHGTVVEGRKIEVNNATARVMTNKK
Oligonucleotide,RBNS enrichment (R)
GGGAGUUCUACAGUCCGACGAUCCAUAUCCUUGCCCUUGAGUGCUUGUUAGAGAGAAAGAGAACUACUAAGGAAAAUAAUAUUAUUUAAACUCGCUCCUAGUGUUUCUUUGUGGUCUGUGUCACCGUAUCUCAUGGAAUUCUCGGGUGCCAA,2.16
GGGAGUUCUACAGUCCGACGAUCCUUUAGUCAGGGCCACACCUUCUGAUGGCAUUCAAAUAUAAGGCUGUGGAAGAAGGAAGCUUUUGCGGUUGUUUCCUUGCUCCUGCUAGUAAGUCCAUGCCUUCAAUAGGUGGAAUUCUCGGGUGCCAA,0.389
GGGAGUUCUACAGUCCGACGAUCCAAAAAAAAAUUAAUGGUAGUAAUUGAACAGUGUUUUGCAAUUUGUGAAACAGUGUGCUGUGUUUUGUACAAAGAUUUCACGAAAGGGAGAGUCCUUCUAAACCUAUAUUUGGAAUUCUCGGGUGCCAA,0.63
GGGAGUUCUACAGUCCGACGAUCAAAUAUAUAUGGACUUAGUUUUUGAACGGAGUCAUUAUUCCUCUAAGGUGGUUCGCUUUGAGGUGGUCUGAAGCCAAGGCCUCGCGGAGCUUCUUUGUGUGUCACCUUGCUGGAAUUCUCGGGUGCCAA,0.475
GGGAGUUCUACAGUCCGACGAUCCCACCGAUCUACAAGGGUUGAUCCCUGUUUUUACCAUCAAUCAUCACCCUGUGGUGCAACACUUGAAAGACCCGGCUAGAGGCACUAUGGACUUCAGGAUCCACUAGACAUGGAAUUCUCGGGUGCCAA,0.254
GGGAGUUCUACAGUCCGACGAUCUUUCAUGUCCUAUAUUAAAGUACAAAUAGGCUUAAAUUACUGGAUAUUUAAUGUAGUUUCCCAUCCCUAGUCUUCUAUGUCUGUGAUGUUAAUUUCUUUUGUUGCAUAACUGGAAUUCUCGGGUGCCAA,0.402
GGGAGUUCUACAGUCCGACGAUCGGCUGCUUAGAAACCACGAGACACCACCUCACUUUCCUCUGGCCUCACUGUUUCUGCCAGUCACAUGCUCUUCCUGUAUGAGUGACACUGCCGUGCUUUCCUCCAGUUAUUGGAAUUCUCGGGUGCCAA,0.412
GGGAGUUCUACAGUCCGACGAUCUGGCCACCUGCCAGACCCCCAAGGAGAGAGGCCAAGAGUGGCCCUGGCACAGUGUGUCUGCUAGCUGCUUCCACACCCCUUAGCCAUGUUAUCUGUAGAGUACCGGAUAGUGGAAUUCUCGGGUGCCAA,0.348
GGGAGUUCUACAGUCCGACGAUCUGCUCCUUCUGUUCCUCAGGAACUAACGAGAACUGUCCUCCAAGGCAGGGGGCAGGGUGGGGCCUGAGAGUGGCUUCAAGUCGGCAGGGUUCUGCUGCCCCUGAUGCUCAUGGAAUUCUCGGGUGCCAA,0.228
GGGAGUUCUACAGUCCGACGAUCCCCUGUAGCUGCAAGUAGCAGGGCAGAGACCCCAGCAGGGCCUCCAGCAGCCCUCAUGGCCCCUUUCCUGUACCAAGCACCCAGCUCUCCUCUUGUUCUGAAAGGGAUUUUGGAAUUCUCGGGUGCCAA,0.298
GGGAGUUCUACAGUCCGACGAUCUUGAAAUUAACUUGGUAGAUGGCUUUAGCUUAGAAAAGCAGCUUCUUAGAACCAAGGGCCUCAUUAUGGUCACUCACAGCUCAGUUAUGGUCUUGCCCCAGCUGGCCCUGUGGAAUUCUCGGGUGCCAA,0.435
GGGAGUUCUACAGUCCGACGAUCCAUGUGUUACACCCAUCCCGUUUACCAUAUUACCAAAUCCUCACAAGAGGUUUCAAGGAACUGUUUCGCUUGAUCUGCACCCUGCUGCUGUGUUCUGUGCUUUACACUGAUGGAAUUCUCGGGUGCCAA,1.23

# Sample 3
# Target: Prothrombin, mature alpha-thrombin (F2, Homo sapiens, UniProt P00734)
# Method: aptamer microarray, sandwich
# Molecule type: DNA with 2'F-ANA
# Matrix: in vitro
# Tested at: 200 nM
# Setting: whole 15-mer aptamer, many near background
# With: Cy3 exosite-II aptamer, 400 nM
# Reading: higher = stronger binding
# Oligonucleotide: GGTTGGTGTGGTTGG
Modification,mean fluorescence intensity
2'F-ANA at 1 3 4 5 6 8 9 13 14,49.9 a.u.
2'F-ANA at 1 2 3 7 8 9 11 12 13 14,83.4 a.u.
2'F-ANA at 1 2 3 4 9 11 12 15,258 a.u.
2'F-ANA at 1 5 7 12 13 15,84.7 a.u.
2'F-ANA at 2 3 5 6 7 8 9 10 12 15,59.8 a.u.
2'F-ANA at 3 7 9 11 12 13 14 15,614 a.u.
2'F-ANA at 2 5 7 8 9 12,178 a.u.
2'F-ANA at 3 4 5 7 10 12 13 15,79 a.u.
2'F-ANA at 2 3 4 6 7 9 11 12 13 14 15,200 a.u.
2'F-ANA at 1 3 6 7 8 9 10 12 13,102 a.u.
2'F-ANA at 2 4 5 9 11 12 13 14,46.9 a.u.
2'F-ANA at 1 5 6 8 9 11 12 14,47.5 a.u.
2'F-ANA at 1 4 5 7 8 9 10 11 13 14,47.4 a.u.
2'F-ANA at 2 3 4 5 7 8 9 12 14 15,56.1 a.u.
2'F-ANA at 9 11 12 13,653 a.u.
2'F-ANA at 5 9 13,57 a.u.
2'F-ANA at 2 4 5 11 12 14 15,44.2 a.u.
2'F-ANA at 5 8 11 13 14,53.1 a.u.
2'F-ANA at 4 6 7 8 10 11 12 15,93.1 a.u.
2'F-ANA at 2 5 9 10 11 12 13 14,51.9 a.u.
2'F-ANA at 1 2 8 11 12 13,320 a.u.
2'F-ANA at 2 3 7 8 10 12 14 15,339 a.u.
2'F-ANA at 1 4 5 7 8 9 10 11 13 15,49.2 a.u.
2'F-ANA at 6 8 9 10 11 12 14 15,98.9 a.u.
2'F-ANA at 2 3 4 5 8 11 12 14,53.3 a.u.

# Sample 4
# Target: Histone acetyltransferase KAT6A, both winged helices, GST fusion (KAT6A, Homo sapiens, UniProt Q92794, residues 1-181)
# Method: protein binding microarray
# Molecule type: double-stranded DNA, one strand shown
# Matrix: in vitro
# Tested at: not given
# Setting: 8-mer, flanks averaged, mean of 2 arrays, mostly near background
# Reference: not given
# Reading: higher = stronger binding
# Residues (chain): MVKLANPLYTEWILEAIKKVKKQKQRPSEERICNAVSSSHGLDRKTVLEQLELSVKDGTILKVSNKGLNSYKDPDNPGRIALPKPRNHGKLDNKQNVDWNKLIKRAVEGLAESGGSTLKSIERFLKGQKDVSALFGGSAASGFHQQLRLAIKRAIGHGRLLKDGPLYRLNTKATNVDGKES
Oligonucleotide,E-score
GCGCCAGA,0.173
CGAATAAC,0.0344
GGGGTGCA,-0.0191
CTCACTAA,-0.145
CAGAGGCG,0.0352
GCACTCTA,-0.0451
TTAGTAAA,-0.0333
ACTGAGAT,-0.226
ACGTAGTC,-0.128
ATGTCGTC,-0.122
TGTGTCAA,-0.0292
AACACCAA,-0.284
ATGTTCGC,0.136
CCCTCTCC,-0.209
ATATTGTG,-0.0684
CTACAAAG,-0.165

# Repeated from above (sample 3):
Modification,mean fluorescence intensity
2'F-ANA at 2 5 7 8 9 12,178 a.u.
2'F-ANA at 3 4 5 7 10 12 13 15,79 a.u.
2'F-ANA at 2 3 4 6 7 9 11 12 13 14 15,200 a.u.
2'F-ANA at 1 3 6 7 8 9 10 12 13,102 a.u.
2'F-ANA at 2 4 5 9 11 12 13 14,46.9 a.u.
